Published values of several laboratories.
Every numbered part comes from another study and shows a few of its results, in no order.

Series 1 — technique: aptamer microarray, sandwich; form: DNA with 2'F-ANA; matrix: in vitro; concentration: 200 nM; added: Cy3 exosite-II aptamer, 400 nM; reading: higher = stronger binding; sequence: GGTTGGTGTGGTTGG
Target: Prothrombin, mature alpha-thrombin (F2, Homo sapiens, UniProt P00734)
Setting: whole 15-mer aptamer, many near background
Modification	mean fluorescence intensity
2'F-ANA at 1 3 5 6 7 10 11 13 14 15	55.1 a.u.
2'F-ANA at 3 6 7 8 9 10 12	529 a.u.
2'F-ANA at 2 3 6 7 9 11 13 14	281 a.u.
2'F-ANA at 1 2 4 5 6 7 9 11 12 14 15	54.8 a.u.
2'F-ANA at 1 3 4 6 8 10 12 13 15	64.2 a.u.
2'F-ANA at 1 5 7 8 9 10 14	46 a.u.
2'F-ANA at 1 3 5 6 7 8 10 11	50.2 a.u.
2'F-ANA at 4 8 9 11 14 15	93.7 a.u.
2'F-ANA at 3 4 5 6 7 9 12 15	214 a.u.
2'F-ANA at 3 4 8 11 15	680 a.u.
2'F-ANA at 1 3 4 6 8 13 14 15	65.7 a.u.
2'F-ANA at 3 4 5 6 7 9 11 15	68.4 a.u.
2'F-ANA at 1 4 7 13 14 15	53.5 a.u.
2'F-ANA at 2 3 4 5 6 7 8 9 10 11 12 15	56 a.u.
2'F-ANA at 1 3 4 5 6 7 9 10 11 12 13 14	49 a.u.
2'F-ANA at 2 3 5 7 9 11 12 13 15	120 a.u.
2'F-ANA at 1 3 4 6 10 11 12 13 14 15	54.4 a.u.
2'F-ANA at 1 2 3 4 6 8 9 12 13 14 15	72.4 a.u.
2'F-ANA at 1 3 5 7 8 9 10 12 13 14 15	51.7 a.u.
2'F-ANA at 2 4 6 8 9 11 12	378 a.u.
2'F-ANA at 5 6 9 10 11 15	47.8 a.u.
2'F-ANA at 1 5 6 7 8 10 12 15	64.6 a.u.

Series 2 — technique: protein-binding microarray; form: double-stranded DNA, one strand shown; matrix: in vitro; concentration: 940 nM top; setting: 60-bp whole probe; added: salmon DNA 0.4 mg/ml; relative to: random background probes; reading: higher = stronger binding; all sequences stand within: GCCTAGCAC … GTCTTGATTCGCTTGACGCTGCTG
Target: Interferon regulatory factor 5, full length, phosphomimetic (IRF5, Homo sapiens, UniProt Q13568-2, residues 1-514, S451D/S453D/S456D/S462D)
Sequence	fitted relative affinity
GGCTCTCTGGACTGTGTGTTTGTGCTA	0.217 z-score
TCAACTCGCCTTTTTTGACTGTGCTAG	0.255 z-score
TTTTTTTTCATCATTGCCTAGTGCTAG	1.31 z-score
TTAGGTCTCCTTATCCTTAAGTGCTAG	0.528 z-score
TTAGAACTGGGTTTCGATTAGTGCTAG	6.49 z-score
GACGATACCAGTTTCGAGACGTGCTAG	4.81 z-score
GACCAACTGGGGACTGGAGACGTGCTA	-0.19 z-score
TTAGGTATCGGGTTTTGGTTAGTGCTA	5.95 z-score
TCCAGCCTGTTTCCAGCAGGGTGCTAG	-0.176 z-score
GACGATTTCGGGACTGTAGACGTGCTA	0.159 z-score
GTCGGTTTCGGGACTGGGGACGTGCTA	7.45 z-score
TAAGAACTGAGTCTCGATTAGTGCTAG	3.44 z-score
ATTAGTATGTTCACTATTTAAGTGCTA	0.151 z-score
GACGATTTCAGGCTCGAGACGTGCTAG	-0.183 z-score
TTAGCACTGCTTTTCCTTTAGTGCTAG	-0.056 z-score
TTAGATCTCAGACTGGATTCGTGCTAG	-0.582 z-score
GACGGACGGGACTTTCGGGACGTGCTA	0.333 z-score
CCTGAAATCTCTTTCCTTACGTGCTAG	0.637 z-score
TCAACCCTCCCTCTGTAAGTGTGCTAG	0.34 z-score
TTAGGTTTCCTCTCCCTTTAGTGCTAG	1.26 z-score
TTTGCTTTCTTTTATGCTCTGTGCTAG	1.28 z-score
GACGTTTTCCTTATCCTGACGTGCTAG	1.38 z-score

Series 3 — technique: universal PBM; form: double-stranded DNA, one strand shown; matrix: in vitro; concentration: 600 nM; reading: higher = stronger binding
Target: Sal-like protein 4, full length isoform A (SALL4, Homo sapiens, UniProt Q9UJQ4, residues 1-1053)
Chain of UniProt Q9UJQ4 (whole entry, looked up): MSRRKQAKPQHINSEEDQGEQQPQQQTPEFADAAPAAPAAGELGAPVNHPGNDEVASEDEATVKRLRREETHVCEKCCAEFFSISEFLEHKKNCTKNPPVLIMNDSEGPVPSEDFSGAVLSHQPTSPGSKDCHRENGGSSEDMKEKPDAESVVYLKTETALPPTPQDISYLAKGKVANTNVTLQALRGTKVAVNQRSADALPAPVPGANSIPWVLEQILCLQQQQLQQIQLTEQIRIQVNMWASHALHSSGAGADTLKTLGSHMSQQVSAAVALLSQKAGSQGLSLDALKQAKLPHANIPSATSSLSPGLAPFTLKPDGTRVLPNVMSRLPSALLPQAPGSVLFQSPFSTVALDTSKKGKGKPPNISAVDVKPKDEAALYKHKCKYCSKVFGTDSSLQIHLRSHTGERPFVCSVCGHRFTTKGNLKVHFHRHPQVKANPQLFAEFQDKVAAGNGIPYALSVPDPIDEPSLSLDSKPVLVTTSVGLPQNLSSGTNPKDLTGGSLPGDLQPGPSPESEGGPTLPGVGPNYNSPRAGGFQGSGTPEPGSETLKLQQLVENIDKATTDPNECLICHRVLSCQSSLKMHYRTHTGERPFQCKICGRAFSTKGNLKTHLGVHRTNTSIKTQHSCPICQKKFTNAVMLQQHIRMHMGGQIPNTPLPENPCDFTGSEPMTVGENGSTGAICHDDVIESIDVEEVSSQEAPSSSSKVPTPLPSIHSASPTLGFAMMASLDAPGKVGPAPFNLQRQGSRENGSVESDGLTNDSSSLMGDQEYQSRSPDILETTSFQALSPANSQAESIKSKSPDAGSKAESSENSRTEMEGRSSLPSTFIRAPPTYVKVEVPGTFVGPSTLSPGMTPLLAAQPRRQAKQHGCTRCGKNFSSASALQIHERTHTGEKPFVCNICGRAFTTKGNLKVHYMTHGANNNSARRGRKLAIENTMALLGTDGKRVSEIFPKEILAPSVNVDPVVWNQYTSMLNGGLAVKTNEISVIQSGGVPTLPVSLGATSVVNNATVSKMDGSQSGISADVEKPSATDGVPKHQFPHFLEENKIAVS
Setting: 8-mer, flanks averaged, mean of replicates
Sequence	E-score
CCACTCTC	-0.199
CGAAAGGC	-0.0572
CCTCGAGG	-0.149
GACAATCC	0.0209
AAGCCGAC	-0.261
AGACAGGC	-0.232
ACCCGCGT	-0.294
ATAACCAA	0.31
CAACATGA	0.174
CTTCCGCC	-0.134
GTTCACTA	0.0162
GTGCCCTA	-0.216
ACTTTAAT	0.264
CATGGTGC	-0.151
ATGAGGAC	0.016
AATAGTAT	0.315
CAATATCG	0.209
GACTACTA	0.127
GACACGTA	0.143
TGCGTAAA	0.11
CTTCCCAC	-0.111
AGTGCCCC	-0.262
AAGTCACA	0.141
AATACAGC	0.026

Series 4 — technique: protein binding microarray; form: double-stranded DNA, one strand shown; matrix: in vitro; concentration: not given; relative to: not given; reading: higher = stronger binding
Target: Histone acetyltransferase KAT6A, winged helix 2, GST fusion (KAT6A, Homo sapiens, UniProt Q92794, residues 85-181)
Setting: 8-mer, flanks averaged, mean of 2 arrays, mostly near background
Construct (chain): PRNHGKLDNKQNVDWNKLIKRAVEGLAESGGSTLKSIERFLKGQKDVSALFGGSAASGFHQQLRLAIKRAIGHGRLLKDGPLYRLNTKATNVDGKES
Sequence	E-score
GAGCTTCA	-0.0222
CTCTTCCC	-0.0999
ACTCTTCC	-0.0661
AAGCTAAC	-0.0753
AAGTGACT	-0.181
AGTCTTAG	-0.171
ATTGGTGC	0.0719
TCCTACGA	-0.101
ACGGTAAT	-0.241
CACACAGC	0.027
GAGATTTA	0.0807
GACAAGGA	-0.0252
AGCAGCCA	0.0254
ACCGGGTA	-0.0279
GAATTGAA	-0.0704
AGGGTCAC	-0.138
GGTGTGGA	0.114
CAGATCGA	0.0597
ATCCGCCG	0.305
GCCACCGA	0.0573
CTCTACGA	-0.0783
GGAAGGAA	0.0879
AAGTCTCG	-0.186
CGGATCTA	0.0588
ATGTGGGC	-0.0639

Series 5 — technique: RNA Bind-n-Seq; form: RNA; matrix: in vitro; concentration: 365 nM; relative to: no-protein control; reading: higher = stronger binding
Target: RNA binding protein fox-1 homolog 2, RRM domain, GST-SBP tag (RBFOX2, Homo sapiens, UniProt O43251-10, residues 100-194)
Setting: natural RNA segment, single round, ends assumed
Target sequence (chain): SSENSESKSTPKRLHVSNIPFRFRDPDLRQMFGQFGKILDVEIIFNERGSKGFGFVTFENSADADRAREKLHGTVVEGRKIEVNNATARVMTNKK
Sequence	RBNS enrichment (R)
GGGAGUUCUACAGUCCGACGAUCUUUUUUUUUUGUUUGACCAAAGUCAGUGCUGCACAUGACGCAGUGGGUUUUAGGUGUCUCUCUUUGUGUUUUCUGUGGUUUGUGAUGCACGUGCGCAGGAAGGGCUCCUCUGGAAUUCUCGGGUGCCAA	5.66
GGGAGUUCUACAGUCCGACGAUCUGAUACGCAGUUGUGCAUGGGAAGGGGAAACGCACAGCUUUAUUUACUGUAAAGUGGAAUUUCAGGAAGGCUUGUGUGAACCGUUGCGCAUAAAUAAACCCUUUCUACCGUGGAAUUCUCGGGUGCCAA	1.62
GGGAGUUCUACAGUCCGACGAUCAAAUGCUAUUUUUACUAAACAUGUCGUACCUAUGCAGUAUAUACAUUAAAGGAAAGCUUGCACUGUAUCUACUUGGUAUUUCUUUUCUUACCAAGCUGGAUAGUAAAGUCUGGAAUUCUCGGGUGCCAA	0.294
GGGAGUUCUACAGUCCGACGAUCCACUAUUUUAAAUAAAUUAUAAGCUUUAAGGUACGAAGUAUUUAAUAGAUCUAAUCAAAUAUGUUGAUUCAUGGCUAUAAUAAAGCAGGAGCAAUUAUAAAAUCUUCAAUUGGAAUUCUCGGGUGCCAA	0.619
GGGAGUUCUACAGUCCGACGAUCUGGUUUUUGUUUCUUGCAUUUCUCUGGGAUGUGAAACACUUGGCUAACAAACACAACUAAGGCCUCUGGUACCCUCUGCCCUGCUGGCCUGGUGAUGUCCCAGUGUCUCAUGGAAUUCUCGGGUGCCAA	0.661
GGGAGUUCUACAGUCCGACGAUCGAGGAGAAUGUGUGCUGGGCUAUGGGAGCCAUGUUCAGAGAUUUGUGUGUGUGUGCCAGAGUAGCUGCAUUCUGAUUCACUAAUCCCUCAUUUUAAUGUGUGCCUUAUGCUGGAAUUCUCGGGUGCCAA	1.77
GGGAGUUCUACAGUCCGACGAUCCUGGGUGGGGUGGCAAUGGGAGGACAGGUCAGAGCGCCCUCAUUUGUGGGGCUGCCCCUCCGGGUUUCUCAUCCUGUCCUUGGUGCCUUUUUCUGCCCAACAAGUCCAGGUGGAAUUCUCGGGUGCCAA	0.253
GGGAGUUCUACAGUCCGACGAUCCUCGGGAAGGGGGAAAAAGUUUAAAAUGGGGGAAAAAAAGCCAUCUUUUUAAACAAAAAUUAUUUUGCCUACAGAAAGGUUGUAGUUUUGAGCACAUGUUAAUUUUUUUCUGGAAUUCUCGGGUGCCAA	0.548
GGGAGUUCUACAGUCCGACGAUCCUAAGUGCCUUUACUUAGGAAAAGCCAGUACCACAUCAUGGCUUCCUUCUUCACUCAAAGGCUGCUUUGCUCUGAGUGGGGAAAGAGUGGGUGUUUUGUAGAAGCAUUGCUGGAAUUCUCGGGUGCCAA	0.278
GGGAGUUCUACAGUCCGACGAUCGUCUCUUCCUUUAGCUGACAAGGACACUCCUGAGGUCUUUGUUCUCACUGUAUUCUUUUUAUCCUGGGGCCACAGUUCUUGAUUAUUCCUCUUGUGGUUAAAGACUGAAUUGGAAUUCUCGGGUGCCAA	0.647
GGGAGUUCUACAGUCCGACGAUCCACUAAGGACAUUUAGAAUCCCCAUCCAUCCAUCCAUCCAUCCAUCCAUCCAUCCAUUCAUCCAUCCCCAGUGUUCCAUGUGUCACCUUCUCCUUUUCCAGCAUCCCUAUUGGAAUUCUCGGGUGCCAA	2.6
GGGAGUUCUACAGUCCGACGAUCUCCCUCAUUUUGUAUAUUUAGCCAGAUACAGAAAGCUCACAUCCUGAAGGAAACAUGACCAUUCUGAGUUUAAAAAAAAGUACAAAUUGCUUCUGAGGCACUAUUUGCCCUGGAAUUCUCGGGUGCCAA	0.364

A few entries again (series 5):
Sequence	RBNS enrichment (R)
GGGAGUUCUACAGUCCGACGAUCUGGUUUUUGUUUCUUGCAUUUCUCUGGGAUGUGAAACACUUGGCUAACAAACACAACUAAGGCCUCUGGUACCCUCUGCCCUGCUGGCCUGGUGAUGUCCCAGUGUCUCAUGGAAUUCUCGGGUGCCAA	0.661
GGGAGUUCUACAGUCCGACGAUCGAGGAGAAUGUGUGCUGGGCUAUGGGAGCCAUGUUCAGAGAUUUGUGUGUGUGUGCCAGAGUAGCUGCAUUCUGAUUCACUAAUCCCUCAUUUUAAUGUGUGCCUUAUGCUGGAAUUCUCGGGUGCCAA	1.77
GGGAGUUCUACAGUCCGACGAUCCUGGGUGGGGUGGCAAUGGGAGGACAGGUCAGAGCGCCCUCAUUUGUGGGGCUGCCCCUCCGGGUUUCUCAUCCUGUCCUUGGUGCCUUUUUCUGCCCAACAAGUCCAGGUGGAAUUCUCGGGUGCCAA	0.253
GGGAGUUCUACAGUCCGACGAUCCUCGGGAAGGGGGAAAAAGUUUAAAAUGGGGGAAAAAAAGCCAUCUUUUUAAACAAAAAUUAUUUUGCCUACAGAAAGGUUGUAGUUUUGAGCACAUGUUAAUUUUUUUCUGGAAUUCUCGGGUGCCAA	0.548
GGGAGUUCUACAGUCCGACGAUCCUAAGUGCCUUUACUUAGGAAAAGCCAGUACCACAUCAUGGCUUCCUUCUUCACUCAAAGGCUGCUUUGCUCUGAGUGGGGAAAGAGUGGGUGUUUUGUAGAAGCAUUGCUGGAAUUCUCGGGUGCCAA	0.278
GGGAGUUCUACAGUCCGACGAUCGUCUCUUCCUUUAGCUGACAAGGACACUCCUGAGGUCUUUGUUCUCACUGUAUUCUUUUUAUCCUGGGGCCACAGUUCUUGAUUAUUCCUCUUGUGGUUAAAGACUGAAUUGGAAUUCUCGGGUGCCAA	0.647
